Measurements gathered from unrelated publications.
Each line is one published result; not all experiments were run side by side. ± marks the error that the study gave.

N=C(N)NCCC[C@@H]1NC(=O)[C@H](CCCCNC(=O)CNC(=O)CNC(=O)CNC(=O)CC[C@H](NC(=O)CNC(=O)CNC(=O)CNC(=O)[C@H](CCCCNC(=O)c2ccc(NN)nc2)NC(=O)c2ccc(NN)nc2)C(=O)NCC(=O)NCC(=O)NCC(=O)NCCCC[C@@H]2NC(=O)[C@@H](Cc3ccccc3)NC(=O)[C@H](CC(=O)O)NC(=O)CNC(=O)[C@H](CCCNC(=N)N)NC2=O)NC(=O)[C@@H](Cc2ccccc2)NC(=O)[C@H](CC(=O)O)NC(=O)CNC1=O [technetium-99m labelled] has a tissue uptake of 0.79 ± 0.15 %ID/g (female athymic nude mice, muscle; intravenous, 0.1 MBq, 1 h, U-87 MG glioma xenograft).
For N=C(N)NCCC[C@@H]1NC(=O)[C@H](CCCCNC(=O)CCOCCOCCOCCOCCNC(=O)CC[C@H](NC(=O)CCOCCOCCOCCOCCNC(=O)CC[C@H](NC(=O)CN2CCN(CC(=O)O)CCN(CC(=O)O)CCN(CC(=O)O)CC2)C(=O)NCCOCCOCCOCCOCCC(=O)N[C@@H](CCC(=O)NCCOCCOCCOCCOCCC(=O)NCCCC[C@@H]2NC(=O)[C@@H](Cc3ccccc3)NC(=O)[C@H](CC(=O)O)NC(=O)CNC(=O)[C@H](CCCNC(=N)N)NC2=O)C(=O)NCCOCCOCCOCCOCCC(=O)NCCCC[C@@H]2NC(=O)[C@@H](Cc3ccccc3)NC(=O)[C@H](CC(=O)O)NC(=O)CNC(=O)[C@H](CCCNC(=N)N)NC2=O)C(=O)NCCOCCOCCOCCOCCC(=O)NCCCC[C@@H]2NC(=O)[C@@H](Cc3ccccc3)NC(=O)[C@H](CC(=O)O)NC(=O)CNC(=O)[C@H](CCCNC(=N)N)NC2=O)NC(=O)[C@@H](Cc2ccccc2)NC(=O)[C@H](CC(=O)O)NC(=O)CNC1=O [indium-111 labelled], the tissue uptake was 3.69 ± 0.92 %ID/g (female athymic nude mice, lungs; intravenous, 3 µCi, 1 h, U-87 MG glioma xenograft).
With CSCC[C@H](NC(=O)[C@H](CC(C)C)NC(=O)[C@H](Cc1c[nH]cn1)NC(=O)CNC(=O)[C@@H](NC(=O)[C@H](C)NC(=O)[C@H](Cc1c[nH]c2ccccc12)NC(=O)[C@H](CCC(N)=O)NC(=O)[C@H](CC(N)=O)NC(=O)CNC(=O)[C@H](Cc1ccc(O)cc1)NC(=O)[C@H](CCCNC(=N)N)NC(=O)[C@H](CCC(N)=O)NC(=O)[C@@H]1CCCN1C(=O)CN1CCN(CC(=O)O)CCN(CC(=O)O)CCN(CC(=O)O)CC1)C(C)C)C(N)=O [indium-111 labelled] the tissue uptake was 0.4 ± 0.5 %ID/g (male Swiss nu/nu mice, PC-3 xenograft, blood; intravenous, 10 pmol, 1 h post injection, 111In or 99mTc labelled).
The tissue uptake of N=C(N)NCCC[C@@H]1NC(=O)[C@H](CCCCNC(=O)CC[C@H](NC(=O)CCOCCOCCOCCOCCNC(=O)CN2CCN(CC(=O)O)CCN(CC(=O)O)CCN(CC(=O)O)CC2)C(=O)NCCCC[C@@H]2NC(=O)[C@@H](Cc3ccccc3)NC(=O)[C@H](CC(=O)O)NC(=O)CNC(=O)[C@H](CCCNC(=N)N)NC2=O)NC(=O)[C@@H](Cc2ccccc2)NC(=O)[C@H](CC(=O)O)NC(=O)CNC1=O [indium-111 labelled] is reported as 6.36 ± 0.8 %ID/g (female athymic nude mice, kidney; intravenous, 3 µCi, 0.5 h, U-87 MG glioma xenograft).
CSCC[C@H](NC(=O)[C@H](CC(C)C)NC(=O)[C@H](Cc1c[nH]cn1)NC(=O)CNC(=O)[C@@H](NC(=O)[C@H](C)NC(=O)[C@H](Cc1c[nH]c2ccccc12)NC(=O)[C@H](CCC(N)=O)NC(=O)CNC(=O)[C@H](CO)NC(=O)CNC(=O)CCCCCCCNC(=O)CCC(=O)Nc1ccc(CNC23CNCCNCC(N)(CNCCNC2)CNCCNC3)cc1)C(C)C)C(N)=O [copper-64 labelled] gave a tissue uptake of 8.54 ± 0.806 %ID/g (female SCID mice, PC-3 xenograft, tumour; intravenous, 0.6 MBq, 1 h).
CC(C)C[C@H](NC(=O)[C@H](Cc1ccc(O)cc1)NC(=O)[C@@H](CCCNC(=N)N)NC(=O)[C@@H](CO)NC(=O)[C@H](Cc1ccccc1)NC(=O)[C@H](CC1CCCCC1)NC(=O)[C@H](CC(=O)O)NC(=O)CCC(C(=O)O)N1CCCN2CCN(CCCN(CC(=O)O)CC2)CC1)C(=O)N[C@@H](Cc1c[nH]c2ccccc12)C(=O)N[C@@H](CO)C(=O)O (stereo partly shown) [copper-64 labelled] gave a tissue uptake of 14 ± 1.6 %ID/g (female NMRI nude mice, kidney; 1 h p.i.).
The tissue uptake of N=C(N)NCCC[C@@H]1NC(=O)[C@H](CC(=O)NC23CNCCNCC(N)(CNCCNC2)CNCCNC3)NC(=O)[C@@H](Cc2ccccc2)NC(=O)[C@H](CC(=O)O)NC(=O)CNC1=O [copper-64 labelled] is reported as 0.87 ± 0.25 %ID/g (male nude tumour-bearing mice, spleen; iv, 10 µCi, 4 h).
With CSCC[C@H](NC(=O)[C@H](CC(=O)O)NC(=O)[C@H](CO)NC(=O)[C@H](Cc1c[nH]cn1)NC(=O)[C@H](Cc1c[nH]c2ccccc12)NC(=O)CN1CCN(CC(=O)O)CCN(CC(=O)O)CCN(CC(=O)O)CC1)C(=O)N[C@@H](CCC(=O)O)C(=O)N[C@@H](Cc1c[nH]c2ccccc12)C(=O)N[C@@H](Cc1c[nH]c2ccccc12)C(=O)N[C@@H](Cc1ccc(O)cc1)C(=O)N[C@@H](CC(C)C)C(=O)N[C@@H](CC(C)C)C(=O)NCC(=O)N[C@@H](CCCCNC(=O)COCCOCCNC(=O)CCN1C(=O)C=CC1=O)C(=O)O [copper-64 labelled] the tissue uptake was 4.69 %ID/g (gamma counting; nude mice bearing HT-29 tumours, HT-29 tumour; intravenous, 0.74 MBq (0.02 nmol), 4 h).
N=C(N)NCCC[C@@H]1NC(=O)[C@H](CCCCNC(=O)CNC(=O)CNC(=O)CNC(=O)CC[C@H](NC(=O)CCOCCOCCOCCOCCNC(=O)CC[C@H](NC(=O)CN2CCN(CC(=O)O)CCN(CC(=O)O)CCN(CC(=O)O)CC2)C(=O)NCCOCCOCCOCCOCCC(=O)N[C@@H](CCC(=O)NCC(=O)NCC(=O)NCC(=O)NCCCC[C@@H]2NC(=O)[C@@H](Cc3ccccc3)NC(=O)[C@H](CC(=O)O)NC(=O)CNC(=O)[C@H](CCCNC(=N)N)NC2=O)C(=O)NCC(=O)NCC(=O)NCC(=O)NCCCC[C@@H]2NC(=O)[C@@H](Cc3ccccc3)NC(=O)[C@H](CC(=O)O)NC(=O)CNC(=O)[C@H](CCCNC(=N)N)NC2=O)C(=O)NCC(=O)NCC(=O)NCC(=O)NCCCC[C@@H]2NC(=O)[C@@H](Cc3ccccc3)NC(=O)[C@H](CC(=O)O)NC(=O)CNC(=O)[C@H](CCCNC(=N)N)NC2=O)NC(=O)[C@@H](Cc2ccccc2)NC(=O)[C@H](CC(=O)O)NC(=O)CNC1=O [indium-111 labelled] has a tissue uptake of 1.91 ± 0.27 %ID/g (female athymic nude mice, lungs; intravenous, 3 µCi, 4 h, U-87 MG glioma xenograft).
N=C(N)NCCC[C@H](NC(=O)[C@H](CCCCN)NC(=O)[C@H](CCC(N)=O)NC(=O)CCOCCOCCOCCNC(=O)CN1CCN(CC(=O)O)CCN(CC(=O)O)CCN(CC(=O)O)CC1)C(=O)N[C@@H](CCCCN)C(=O)N[C@@H](CCCNC(=N)N)C(=O)N[C@@H](CCCCN)C(=O)N[C@@H](CCCCN)C(=O)N[C@@H](CO)C(=O)N[C@@H](CCCNC(=N)N)C(=O)N[C@@H](Cc1ccc(O)cc1)C(=O)N[C@@H](CCCCN)C(=O)N[C@@H](CO)C(=O)O [copper-64 labelled] has a tissue uptake of 0.39 ± 0.02 %ID/g (male C57BL/6 mice, B16-F10 tumour, pancreas; intravenous, 60 min).
For N=C(N)NCCC[C@@H]1NC(=O)[C@H](CCCCNC(=O)CCOCCOCCOCCOCCNC(=O)CC[C@H](NC(=O)CCOCCOCCOCCOCCNC(=O)c2ccc(NN)nc2)C(=O)NCCOCCOCCOCCOCCC(=O)NCCCC[C@@H]2NC(=O)[C@@H](Cc3ccccc3)NC(=O)[C@H](CC(=O)O)NC(=O)CNC(=O)[C@H](CCCNC(=N)N)NC2=O)NC(=O)[C@@H](Cc2ccccc2)NC(=O)[C@H](CC(=O)O)NC(=O)CNC1=O [technetium-99m labelled], the tissue uptake was 2.1 ± 0.54 %ID/g (female athymic nude mice, U-87 MG glioma xenograft, lungs; intravenous, 2.5 µCi, 60 min).
For N=C(N)NCCC[C@@H]1NC(=O)[C@H](CCCCNC(=O)CCOCCOCCOCCOCCNC(=O)CN2CCN(CC(=O)O)CCN(CC(=O)O)CCN(CC(=O)O)CC2)NC(=O)[C@@H](Cc2ccccc2)NC(=O)[C@H](CC(=O)O)NC(=O)CNC1=O [indium-111 labelled], the tissue uptake was 0.24 ± 0.01 %ID/g (female athymic nude mice, eyes; intravenous, 3 µCi, 4 h, U-87 MG glioma xenograft).
The tissue uptake of N=C(N)NCCC[C@@H]1NC(=O)[C@H](CCCCNC(=O)CC[C@H](NC(=O)[C@H](CCCCNC(=O)c2ccc(NN)nc2)NC(=O)c2ccc(NN)nc2)C(=O)NCCCC[C@@H]2NC(=O)[C@@H](Cc3ccccc3)NC(=O)[C@H](CC(=O)O)NC(=O)CNC(=O)[C@H](CCCNC(=N)N)NC2=O)NC(=O)[C@@H](Cc2ccccc2)NC(=O)[C@H](CC(=O)O)NC(=O)CNC1=O [technetium-99m labelled] is reported as 2.7 ± 0.04 %ID/g (female athymic nude mice, lungs; intravenous, 0.1 MBq, 1 h, U-87 MG glioma xenograft).

Some of these lines once more:
CSCC[C@H](NC(=O)[C@H](CC(C)C)NC(=O)[C@H](Cc1c[nH]cn1)NC(=O)CNC(=O)[C@@H](NC(=O)[C@H](C)NC(=O)[C@H](Cc1c[nH]c2ccccc12)NC(=O)[C@H](CCC(N)=O)NC(=O)CNC(=O)[C@H](CO)NC(=O)CNC(=O)CCCCCCCNC(=O)CCC(=O)Nc1ccc(CNC23CNCCNCC(N)(CNCCNC2)CNCCNC3)cc1)C(C)C)C(N)=O [copper-64 labelled] gave a tissue uptake of 8.54 ± 0.806 %ID/g (female SCID mice, PC-3 xenograft, tumour; intravenous, 0.6 MBq, 1 h).
